Published values from different studies.
A part holds a random share of what one study measured. Positions count from the first letter of the parent shown.

Set 1 — target: CCNE2, cyclin fold, Cln2 fusion (human); method: yeast growth competition, sequencing; medium: yeast; notes: strong parent motif; relative to: not given; reading: higher = stronger binding
Starting sequence: E2F1 docking peptide (human); PPVKRRLDLETDH
Variant | normalised enrichment score
PPVKRRLDLETDY [H13Y] | 1.23
PPVKRRLDLEHDH [T11H] | 1.18
PPFKRRLDLETDH [V3F] | 0.534
PPVKRRLDLEQDH [T11Q] | 0.887
PPVKRRLNLETDH [D8N] | 2.06
PPVKRFLDLETDH [R6F] | 0.034

Set 2 — method: aptamer microarray, sandwich; molecule type: DNA with 2'F-ANA; medium: in vitro; tested at: 200 nM; with: Cy3 exosite-II aptamer, 400 nM; reading: higher = stronger binding; oligonucleotide: GGTTGGTGTGGTTGG
Target: Prothrombin, mature alpha-thrombin (F2, Homo sapiens, UniProt P00734)
Notes: whole 15-mer aptamer, many near background
Modification | mean fluorescence intensity [a.u.]
2'F-ANA at 1 2 5 7 8 9 11 13 | 51.9
2'F-ANA at 2 6 9 11 12 13 | 403
2'F-ANA at 2 3 6 7 10 11 13 15 | 285
2'F-ANA at 1 3 5 9 12 13 | 92.6
2'F-ANA at 3 5 6 8 9 12 14 | 63.8
2'F-ANA at 1 4 5 8 9 11 12 14 15 | 58.8
2'F-ANA at 1 3 5 6 10 13 14 | 47.1
2'F-ANA at 1 2 4 6 7 10 11 15 | 48.9
2'F-ANA at 1 3 5 6 7 9 10 13 14 15 | 50.4
2'F-ANA at 1 3 4 6 7 11 12 13 14 | 73.7

Set 3 — method: RNA Bind-n-Seq; molecule type: RNA; medium: in vitro; tested at: 200 nM; notes: whole 134-nt RNA, ends assumed; with: 150 mM LiCl; relative to: input library; reading: higher = stronger binding; each molecule: 7-deaza-guanosine replaces G
Target: Fragile X messenger ribonucleoprotein 1, C-terminal low-complexity region (Fmr1, Mus musculus, UniProt P35922)
Constant ends, left off below: GGGAGUUCUACAGUCCGACGAUC … UGGAAUUCUCGGGUGUCAAGG
Oligonucleotide | log2 enrichment
UUCAAAGCGUUCGAAUGAGGAGACUGAUGACUAUGGGAAGGCGCAGGUAGCCAAAAGCAGCAGCAAGGAAUCCAGGUCAUCCAAGCUCCA | -1.14
UGGCUCUGGUGGCAUGCGGGGAGGAAGAGGUGGCCUCAUGGAUCGUGGUGGUCCCGGUGGAAUGUUCAGAGGUGGCCGUGGUGGAGACAG | -0.173
CAAGUCCUGUGCUACACAUCGUAUGUACCGAAUCGGGAAAAAAAGGGUGGGUGGGAAAGUAUUAUGUUACGCCGUUCGGAUCUGCACUUC | -0.565
CCUGUGCUACACAUCGUAUGUACCGAAUCGGAAAAAAAGGGAAAAAAAGGGAAAAAAAGGAAAGUAUUAUGUUACGCCGUUCGGAUCUGC | -0.597
UGGCCCUGGUGGCAUGCGGGGAGGAAGAGGUGUCCUCAUGGAUCGUGGUGGUCCCGGUGGAAUGUUCAGAGGUGGCCGUGGUGGAGACAG | 0.179
CUCAAGUCCUGUGCUACACAUCGUAUGUACCGAAUCGGUUUUUGGAGGAAAGGAAAGUAUUAUGUUACGCCGUUCGGAUCUGCACUUCCA | -0.219

Other studies, line by line
Molecule | target | assay | system | conditions | scale | endpoint | result
PhoQ, residues 284 288 289 292 302 303 AEGLLW | PhoP, residues 12 14 15 18 19 TQAIL (Escherichia coli, UniProt P23836) | Sort-seq, refers to: YFP reporter | E. coli | PhoQ-PhoP variant library, with: 10 µM Mg2+ | relative to: high Mg2+ state, higher = stronger signaling | fold induction | 19.1
